Experimental data pooled from the literature.
Parts stem from different laboratories: compare values within a part only. Several values in a cell are separate wells, animals, samples, runs or records.

Study 1 — tested at: 1 µM; relative to: DMSO
Structure (SMILES): COc1ccc2c(c1)O[C@H](c1ccc(OC)c(OC)c1)C[C@@H]2NC(=O)C1(c2ccc3c(c2)OC(F)(F)O3)CC1 (single isomer, unassigned)
cell line | assay | viability
normal-adjacent epithelium patient-derived organoids sample H | CellTiter-Glo | 134% and 160%
colorectal tumour organoids | – | 110%
normal adjacent epithelium organoid sample G | CellTiter-Glo | 99.2%
normal adjacent epithelium organoid sample E | CellTiter-Glo | 106%
normal adjacent epithelium organoid sample H | CellTiter-Glo | 147%
normal-adjacent epithelium patient-derived organoids sample E | CellTiter-Glo | 110% and 102%
normal-adjacent epithelium patient-derived organoids sample F | CellTiter-Glo | 80.9% and 148%
normal adjacent epithelium organoid sample D | CellTiter-Glo | 113%
sample J colorectal tumour organoid | – | 91.4% and 101%
normal adjacent epithelium organoid sample F | CellTiter-Glo | 114%
sample C colorectal tumour organoid | – | 107% and 138%
normal-adjacent epithelium patient-derived organoids sample G | CellTiter-Glo | 102% and 96.4%

Study 2 — observed: enzyme activity; mode: inhibitor; tested at: 0.5 µM; relative to: control
Target: Receptor tyrosine-protein kinase erbB-2 (ERBB2, Homo sapiens, UniProt P04626)
Compound | remaining activity [%]
C[C@@H](N)[C@H]1CC[C@H](C(=O)Nc2ccncc2)CC1 | 107
O=C(O)/C=C/c1cc(Br)c(Br)c(Br)c1Br | 95.4
CC(C)n1cnc2c(Nc3cccc(Cl)c3)nc(NCCO)nc21 | 96.2
CC(C)(C)c1nc2c3cc[nH]c(=O)c3c3cc(F)ccc3c2[nH]1 | 109
c1cc(-c2cnn3cc(-c4ccc(OCCN5CCCCC5)cc4)cnc23)ccn1 | 94.6
N#C/C(=C(/N)SC1C=CC=CC1)c1cccc(C(O)c2ccncc2)c1 (stereo not drawn) | 96.6
CCN(CC)CCCCN1c2ccccc2Oc2ccc(Cl)cc21 | 96.6
O=C(c1ccccc1)c1ccc(N2CCOCC2)cc1O | 94.8
O=c1c(-c2ccc(F)cc2)c(-c2ccncc2)[nH]n1-c1ccc(Cl)cc1 | 103
NC(=O)c1ccc(-c2nc(-c3ccc4c(c3)OCCO4)c(-c3ccccn3)[nH]2)cc1 | 97.9
N#CC(c1ccnc(NCCc2cccnc2)n1)c1nc2ccccc2s1 (stereo not drawn) | 104

Study 3 — cell line: mouse MPNST tumor cells; technique: high-content immunofluorescence imaging; refers to: nuclear SOX9; tested at: 10 µM; time: 12 h; setting: mean of 2 replicates; relative to: DMSO control; reading: higher = more nuclear SOX9
Compound | nuclear SOX9 intensity
O=C(CCCc1ccc(-c2ccccc2F)cc1)Nc1ccc(O)cc1 | 161 % of DMSO
O=C(O)c1cc(O)c2ccc(Cl)cc2n1 | 97.1 % of DMSO
O=C(Nc1ncc([N+](=O)[O-])s1)c1ccccc1O | 97.8 % of DMSO
CC(NCCc1ccc(O)cc1)C(O)c1ccc(O)cc1 (stereo not drawn) | 107 % of DMSO
Cc1cccc(C)c1NC(=O)C(C)N (stereo not drawn) | 97.3 % of DMSO
CO[C@H]1CNC[C@@H](OCC2CCC(F)(F)CC2)[C@@H]1Nc1ncc(-c2cncc(C)c2)c2cc(C)c(=O)[nH]c12 | 90.5 % of DMSO
Cc1ccc([N+](=O)[O-])cc1S(=O)(=O)N(C)C | 94.7 % of DMSO
COc1ccccc1OCC(O)CO (stereo not drawn) | 95.2 % of DMSO
CC(C)N1CCN(c2ccc(C(=O)c3c(-c4ccc(O)cc4)sc4cc(O)ccc34)cc2)CC1 | 207 % of DMSO

Study 4 — organism: Sarcocystis neurona; observed: parasite growth; tested at: 10 µM; time: 96 h; relative to: untreated
Structure (SMILES) | log2 fold change
CC(=O)[C@]1(O)Cc2c(O)c3c(c(O)c2[C@@H](O[C@H]2C[C@H](N)[C@H](O)[C@H](C)O2)C1)C(=O)c1ccccc1C3=O | -5.82
Nc1nnc(-c2cccc(Cl)c2Cl)c(N)n1 | 0.3
NNC(=O)c1ccncc1 | 0.34
C#C[C@]1(O)CC[C@H]2[C@@H]3CCc4cc(OC)ccc4[C@H]3CC[C@@]21C | 0.47
COc1cccc2c1C(=O)c1c(O)c3c(c(O)c1C2=O)C[C@@](O)(C(=O)CO)C[C@@H]3O[C@H]1C[C@H](N)[C@H](O)[C@H](C)O1 | -1.18
[H]/N=C(/NCCCCC)N/N=C/c1c[nH]c2ccc(OC)cc12 | -6.13
CCC(C)(C)C(=O)O[C@H]1C[C@@H](C)C=C2C=C[C@H](C)[C@H](CC[C@@H]3C[C@@H](O)CC(=O)O3)[C@H]21 | 0.35
CC(N)C12CC3CC(CC(C3)C1)C2 (stereo not drawn) | 0.3
Cc1ccc(S(=O)(=O)NC(=O)NN2CCCCCC2)cc1 | 0.26
CC(C(=O)O)c1cccc(C(=O)c2ccccc2)c1 (stereo not drawn) | 0.35
CC(C)(C)C(O)/C=C/c1ccc2c(c1)OCO2 (stereo not drawn) | 0.43
NC(=O)N1c2ccccc2CC(=O)c2ccccc21 | -1.3
CCOC(=O)C1=C(C)NC(C)=C(C(=O)OCC)C1c1ccccc1/C=C/C(=O)OC(C)(C)C | -0.66

For quick reference, copied from above (study 4):
Structure (SMILES) | log2 fold change
COc1cccc2c1C(=O)c1c(O)c3c(c(O)c1C2=O)C[C@@](O)(C(=O)CO)C[C@@H]3O[C@H]1C[C@H](N)[C@H](O)[C@H](C)O1 | -1.18
CCC(C)(C)C(=O)O[C@H]1C[C@@H](C)C=C2C=C[C@H](C)[C@H](CC[C@@H]3C[C@@H](O)CC(=O)O3)[C@H]21 | 0.35
NNC(=O)c1ccncc1 | 0.34
CC(=O)[C@]1(O)Cc2c(O)c3c(c(O)c2[C@@H](O[C@H]2C[C@H](N)[C@H](O)[C@H](C)O2)C1)C(=O)c1ccccc1C3=O | -5.82
